Measurements gathered from unrelated publications.
Protocols differ between the studies behind these lines. Several values in a cell are separate wells, animals, samples, runs or records. Values after ≈ are worked out from the molar mass of the structure shown.
Organism: Plasmodium falciparum

CC(C)n1nc(-c2ccc3oc(N)nc3c2)c2c(N)ncnc21
inhibition (parasite growth, inhibitor; 2 µM, 48 h, gametocyte): 97%

CS(=O)(=O)c1ccc(-c2cnc(N)c(-c3ccc(C(F)(F)F)nc3)c2)cc1
EC90 (SCID mice, blood): 0.16 µg/mL (≈ 0.407 µM)

CCN1CCN(c2ccc(Nc3ccnc4cc(Cl)ccc34)cc2)CC1
IC50 (parasite growth, SYBR Green; DD2; 72 h, drug-resistant strain, blood stage): 26 nM

COc1ccc(C2CC(=O)C3=C(C2)NC(C)=C(C(=O)OC(C)C)C3c2ccccc2C)cc1OC (stereo not shown)
IC50 (male gamete formation; stage V gametocytes; 24 h, compound washed out): 521 nM

Clc1ccc2c(Nc3ccc(N4CCNCC4)cc3)ccnc2c1
IC50 (parasite growth, SYBR Green; DD2; 72 h, drug-resistant strain, blood stage): 30 nM

CCCOC(=O)C1=C(C)NC2=C(C(=O)CC(c3ccc(OC)c(OC)c3)C2)C1c1ccccc1F (stereo not shown)
IC50 (female gamete formation, measured: Pfs25; stage V gametocytes; 24 h, compound carried over): > 20000 nM

C/C=C1\NC(=O)[C@H]2CSSCC/C=C/[C@H](CC(=O)N[C@H](C(C)C)C(=O)N2)OC(=O)[C@H](C(C)C)NC1=O
histone H4 acetylation (Western blot, measured: tetra-acetylated histone H4; 3D7 trophozoites; 3 × IC50, 3 h; relative to: DMSO): 2.4 fold and > 1.3 fold

CCN(CC)CCCC(C)Nc1ccnc2cc(Cl)ccc12 (stereo not shown)
mature gametocyte reduction (stage II gametocytes, NF54; IC90, 2 d, counted at day 7; relative to: DMSO): ≤ 20%

CC1CCN(Cc2ccc(/C=C/C(=O)c3ccc(Cl)cc3)cc2O)CC1
EC50 (parasite growth; 3D7; 72 h, blood stage): 27500 nM

CCN1CCC(c2ccc(Nc3ccnc4cc(Cl)ccc34)cc2)CC1
IC50 (parasite growth, SYBR Green; DD2; 72 h, drug-resistant strain, blood stage): 11 nM

CC(=O)OCc1cn(-c2n[nH]c(C(F)(F)F)n2)nn1
inhibition (parasite growth; NF54; 1 µM, gametocyte): > 75%

Clc1ccc2c(Nc3ccc(N4CCN(Cc5ccccc5)CC4)cc3)ccnc2c1
IC50 (parasite growth, SYBR Green; DD2; 72 h, drug-resistant strain, blood stage): 26 nM

CCN(CC)CCCC(C)Nc1ccnc2cc(Cl)ccc12 (stereo not shown)
growth inhibition ([3H]hypoxanthine incorporation; 3D7; 10 µM, 48 h): ~100%

Repeated from above:
CCN(CC)CCCC(C)Nc1ccnc2cc(Cl)ccc12 (stereo not shown)
growth inhibition ([3H]hypoxanthine incorporation; 3D7; 10 µM, 48 h): ~100%
